Results of several laboratories.
Lines come from different studies, so protocols differ. Values joined by “and” are separate records of one study, mostly repeats; a detail may differ. ± marks the error that the study gave.
Sequence of UniProt P49761 (whole entry, looked up): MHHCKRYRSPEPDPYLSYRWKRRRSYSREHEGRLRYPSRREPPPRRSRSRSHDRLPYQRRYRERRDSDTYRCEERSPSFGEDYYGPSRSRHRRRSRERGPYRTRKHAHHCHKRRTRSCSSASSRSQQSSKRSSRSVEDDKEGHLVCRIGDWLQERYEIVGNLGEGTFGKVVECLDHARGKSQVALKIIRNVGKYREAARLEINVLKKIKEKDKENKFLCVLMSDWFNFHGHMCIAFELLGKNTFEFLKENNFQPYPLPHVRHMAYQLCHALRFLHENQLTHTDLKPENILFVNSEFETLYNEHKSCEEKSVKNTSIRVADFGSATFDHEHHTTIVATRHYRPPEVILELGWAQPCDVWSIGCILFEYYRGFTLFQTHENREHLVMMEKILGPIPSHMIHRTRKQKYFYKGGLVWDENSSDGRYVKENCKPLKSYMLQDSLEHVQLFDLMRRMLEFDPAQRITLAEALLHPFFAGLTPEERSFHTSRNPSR

The tumour volume of COc1ccc(NC(=O)c2ccc3[nH]c(-c4ccc(N(C)C)cc4)nc3c2)cn1 is reported as 678 mm3 and 858 mm3 and 431 mm3 and 223 mm3 and 702 mm3 (CT26, BALB/c nude mice, subcutaneous graft; dose not given, day 7).
COC1OC(C)C(OC2OC(C)C(OS(=O)(=O)O)C(OC3OC(C)C(OC4OC(C)C(OS(=O)(=O)O)C(OC5OC(C)C(OC6OC(C)C(OS(=O)(=O)O)C(OC7OC(C)C(OS(=O)(=O)O)C(OS(=O)(=O)O)C7OS(=O)(=O)O)C6OS(=O)(=O)O)C(OS(=O)(=O)O)C5OS(=O)(=O)O)C4OS(=O)(=O)O)C(OS(=O)(=O)O)C3OS(=O)(=O)O)C2OS(=O)(=O)O)C(OS(=O)(=O)O)C1OS(=O)(=O)O (stereo not drawn) — result for “activated partial thromboplastin time”: 132 s and 141 s and 134 s (human plasma; 32 µg/mL).
Nc1ncc(-c2cc(-c3cnn(CC(F)(F)F)c3)ncc2F)nc1C(=O)NC1CNCC(F)C1 (stereo not drawn) gave a remaining binding of 100% (NIK; KINOMEscan competition binding; 1 µM; relative to: DMSO control).
COC1CN([C@H]2CC[C@H]([C@@]3(C)Oc4c(Cl)cc(C(=O)NCc5c(SC)cc(C)[nH]c5=O)c(C)c4O3)CC2)C1 — result for “log2 fold change”: 1.1 (RNA-seq, measured: PURA; human, whole blood; dose not given, 24 h; relative to: pretreatment baseline).
For Cc1ncsc1-c1ccc(C(C)NC(=O)C2CC(O)CN2C(=O)C(NC(=O)CCCCCCCCCCN2CCCC(Nc3ncc(Cl)c(Nc4ccccc4S(=O)(=O)C(C)C)n3)C2)C(C)(C)C)cc1 (stereo not drawn), “log2 fold change” read -2.44 (22Rv1; RNA-seq, measured: SLC37A2 mRNA; concentration not given; relative to: DMSO).
For Nc1nc2cc(CC[C@H]3C[C@@H](n4ccc5c(N)ncnc54)[C@H](O)[C@@H]3O)ccc2cc1Br, the %ΔTGI was 104% (NCI-H1048 xenograft, mouse; 10.0 mg/kg/day, day 28).
For CC(=O)[O-].O.[Cu+2].[O-]c1ccc(Br)cc1C=NCCN1CCOCC1, the inhibition was 65.5% (DPPH radical scavenging; 200 µM).
For CNS(=O)(=O)Nc1nccc(Cc2c(C)c3ccc(Oc4ncccc4F)cc3oc2=O)c1F, the IC50 was 79.8 nM (MP41; cell viability; 7 days).
Under “activated partial thromboplastin time”, COC1OC(C)C(O)C(OC2OC(C)C(O)C(OC3OC(C)C(O)C(OC4OC(C)C(O)C(OC5OC(C)C(O)C(OC6OC(C)C(O)C(OC7OC(C)C(O)C(OC8OC(C)C(O)C(OS(=O)(=O)O)C8OS(=O)(=O)O)C7OS(=O)(=O)O)C6OS(=O)(=O)O)C5OS(=O)(=O)O)C4OS(=O)(=O)O)C3OS(=O)(=O)O)C2OS(=O)(=O)O)C1OS(=O)(=O)O (stereo not drawn) is recorded as 40 ± 0.6 s (human plasma; 128 µg/mL).
COc1cc(N2CCN(C(=O)C3CCCN3)CC2)ccc1Nc1ncc(Cl)c(Nc2ccccc2P(C)(C)=O)n1 (stereo not drawn) gave a tumour volume of 101 mm3 and 90.9 mm3 and 55.8 mm3 and 131 mm3 and 82.3 mm3 (nude mice, NCI-H3122 xenograft; intraperitoneal, 10 mg/kg every other day, day 15).
For COC1OC(C)C(OC2OC(C)C(OS(=O)(=O)O)C(OC3OC(C)C(OC4OC(C)C(OS(=O)(=O)O)C(OC5OC(C)C(OC6OC(C)C(OS(=O)(=O)O)C(OS(=O)(=O)O)C6OS(=O)(=O)O)C(OS(=O)(=O)O)C5OS(=O)(=O)O)C4OS(=O)(=O)O)C(OS(=O)(=O)O)C3OS(=O)(=O)O)C2OS(=O)(=O)O)C(OS(=O)(=O)O)C1OS(=O)(=O)O (stereo not drawn), “activated partial thromboplastin time” read 70 s and 74.1 s and 73.4 s (human plasma; 32 µg/mL).
With Cc1nn(-c2cccc(N)c2)c(=O)c2cnc(Nc3ccc(N4CCNCC4)cc3)nc12 the IC50 was > 10000 nM (CLK3 (Homo sapiens, UniProt P49761); enzyme activity, inhibitor).
The tumour volume of CCCCCc1ccc(S(=O)(=O)N2CC2C(=O)OC)cc1 (stereo not drawn) is reported as 481 mm3 (mouse, Lewis lung carcinoma; intraperitoneal, 5 mg/kg, 16 doses, day 14).
CN1CCCNC(=O)c2cccc(c2)C(=O)NCCCN(C)CCCNc2cccc3c2C(=O)c2cccc(c2C3=O)NCCC1 — result for “log2 fold change”: 0.571 (SAS; RNA-Seq, measured: YTHDC1 mRNA; 1 µM, 6 h; relative to: untreated cells).
Under “protein level difference”, COc1cc2c(NC3CCN(C(C)C)CC3)cc(N3CCOCC3)nc2cc1OCCCN1CCCC1 is recorded as 0.0398 (TMT proteomics, measured: GMFB; 5xFAD mice, hippocampus; dose not given, unit not given; relative to: wild type).

Excerpt of the above:
COC1OC(C)C(OC2OC(C)C(OS(=O)(=O)O)C(OC3OC(C)C(OC4OC(C)C(OS(=O)(=O)O)C(OC5OC(C)C(OC6OC(C)C(OS(=O)(=O)O)C(OC7OC(C)C(OS(=O)(=O)O)C(OS(=O)(=O)O)C7OS(=O)(=O)O)C6OS(=O)(=O)O)C(OS(=O)(=O)O)C5OS(=O)(=O)O)C4OS(=O)(=O)O)C(OS(=O)(=O)O)C3OS(=O)(=O)O)C2OS(=O)(=O)O)C(OS(=O)(=O)O)C1OS(=O)(=O)O (stereo not drawn) — result for “activated partial thromboplastin time”: 132 s and 141 s and 134 s (human plasma; 32 µg/mL).
Under “activated partial thromboplastin time”, COC1OC(C)C(O)C(OC2OC(C)C(O)C(OC3OC(C)C(O)C(OC4OC(C)C(O)C(OC5OC(C)C(O)C(OC6OC(C)C(O)C(OC7OC(C)C(O)C(OC8OC(C)C(O)C(OS(=O)(=O)O)C8OS(=O)(=O)O)C7OS(=O)(=O)O)C6OS(=O)(=O)O)C5OS(=O)(=O)O)C4OS(=O)(=O)O)C3OS(=O)(=O)O)C2OS(=O)(=O)O)C1OS(=O)(=O)O (stereo not drawn) is recorded as 40 ± 0.6 s (human plasma; 128 µg/mL).
